{"data": "Measurements collected from several papers", "note": "Parts stem from different laboratories: compare values within a part only."}
{"data": "Set 1", "target": "PABPC1L2, full length, GST fusion (mouse, UniProt A0ABA7IW68)", "technique": "RNAcompete", "form": "RNA", "sample": "in vitro", "tested at": "20 nM", "setting": "7-mer, probes averaged, single round", "relative to": "mean of 7-mers", "reading": "higher = stronger binding", "Residues (chain)": "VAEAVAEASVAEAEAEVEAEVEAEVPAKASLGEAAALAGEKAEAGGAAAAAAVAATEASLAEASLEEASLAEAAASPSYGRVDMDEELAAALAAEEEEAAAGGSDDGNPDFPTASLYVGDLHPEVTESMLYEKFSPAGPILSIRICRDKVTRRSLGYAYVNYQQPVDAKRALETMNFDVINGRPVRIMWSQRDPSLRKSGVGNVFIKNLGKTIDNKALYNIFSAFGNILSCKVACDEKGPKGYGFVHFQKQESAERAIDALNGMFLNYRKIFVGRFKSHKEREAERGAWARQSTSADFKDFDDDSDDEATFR"}
{"Strand": "CUUCGAG", "7-mer Z-score": -0.157}
{"Strand": "CGAUGGC", "7-mer Z-score": -0.012}
{"Strand": "GCUUGUA", "7-mer Z-score": -0.186}
{"Strand": "UCCCGGU", "7-mer Z-score": -0.3}
{"Strand": "GAAUAGC", "7-mer Z-score": -0.233}
{"Strand": "UCUGAGC", "7-mer Z-score": -0.273}
{"Strand": "GCAUUUG", "7-mer Z-score": -0.278}
{"Strand": "AUACAGU", "7-mer Z-score": -0.0101}
{"Strand": "ACAACAC", "7-mer Z-score": 0.296}
{"Strand": "AGGCAGA", "7-mer Z-score": 0.365}
{"Strand": "AGGGCGG", "7-mer Z-score": 0.626}
{"Strand": "AACCGUA", "7-mer Z-score": -0.0754}
{"Strand": "AUUUAUG", "7-mer Z-score": 0.256}
{"Strand": "AGUGACU", "7-mer Z-score": -0.237}
{"Strand": "GACGUCU", "7-mer Z-score": -0.369}
{"Strand": "GGCUCGG", "7-mer Z-score": -0.0101}
{"Strand": "CGCAUUA", "7-mer Z-score": -0.222}
{"Strand": "CCCAUUC", "7-mer Z-score": -0.336}
{"Strand": "GUGUAUU", "7-mer Z-score": -0.19}
{"Strand": "AUUGGCC", "7-mer Z-score": -0.168}
{"Strand": "GCAUAAG", "7-mer Z-score": -0.0373}
{"data": "Set 2", "target": "RNA binding protein fox-1 homolog 2, RRM domain, GST-SBP tag (RBFOX2, Homo sapiens, UniProt O43251-10, residues 100-194)", "technique": "RNA Bind-n-Seq", "form": "RNA", "sample": "in vitro", "tested at": "365 nM", "setting": "natural RNA segment, single round, ends assumed", "relative to": "no-protein control", "reading": "higher = stronger binding", "Construct (chain)": "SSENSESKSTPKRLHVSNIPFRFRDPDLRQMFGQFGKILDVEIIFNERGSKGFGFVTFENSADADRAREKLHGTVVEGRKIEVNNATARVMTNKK"}
{"Strand": "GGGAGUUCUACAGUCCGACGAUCUCCACAACUGCAUUCACUAUCACUUCUUGAGAUGGGACAGAUAUCCGUGCGUCAGUGGCUGGCAGAAGAAAGACGCCUUUGUCUGUGUAAUGCCUCUGUUAACUUUGCCAUGGAAUUCUCGGGUGCCAA", "RBNS enrichment (R)": 0.455}
{"Strand": "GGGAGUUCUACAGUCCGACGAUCGGGCCAGAUGGAGAGCAGAUGUGGCAGGAAAUGGCACAGAGCUGAGUGAGGAGAAUGGGGAGUCCAUGGUUCAAGGUCAGAUGCGGCCACCAGCUGGCUUUGUGACCUUGUGGAAUUCUCGGGUGCCAA", "RBNS enrichment (R)": 0.808}
{"Strand": "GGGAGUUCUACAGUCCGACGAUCUUGAAACUAUUAUACUUUGAGUUUUAGAUUGGCCAAAUACAUUAAUGUAGUUAAAUUCAUCUUUAAAGUACACAUAUGUGCCUAGAGCCAAAAAAUAAUAAUGAUUUAAUUGGAAUUCUCGGGUGCCAA", "RBNS enrichment (R)": 0.577}
{"Strand": "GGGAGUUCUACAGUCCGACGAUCCCCCUUCCCUGAUGCCAGGGGCACCAGACUGAUUCUGAGGCACAAAUAAAAGAGGCUUCAUACCGGAGGCUUUUGCUACCUAACUUUACUUGGGGGGAACGCCUACGGUGUGGAAUUCUCGGGUGCCAA", "RBNS enrichment (R)": 0.246}
{"Strand": "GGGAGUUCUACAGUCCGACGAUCUUUUAAUGACAAUGAAGUGACACUUUGACAUUUCCUACCUUUUGAGGACUUGAUCCUUCUCCAGGAAGAAGGUGCUUUCUGCUUACUGACUUAGGCAAUACACCAAGGGCUGGAAUUCUCGGGUGCCAA", "RBNS enrichment (R)": 0.32}
{"Strand": "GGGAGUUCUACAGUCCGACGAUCAUUGUCCAGAGUGUCAUCCAGACAGCCGUCGACCAGUUUGCACGUACAGAAACAGCCCCCGAAACCCACGCUUCUGAUUUACAGAAUCAGGUUCCUGUGAUGCAGGCUGAUGGAAUUCUCGGGUGCCAA", "RBNS enrichment (R)": 1.49}
{"Strand": "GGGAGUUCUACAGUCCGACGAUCUACCAUACAUUCUUUUGUAGUAAAAUAUAAGUCAGAUUUCAAUCAUCUAUGAUUCAAGACAGUGGGAAUUUUAUCUUCUGUAACAAGUUUCAAUAAAGUUAGACCAGCUUUGGAAUUCUCGGGUGCCAA", "RBNS enrichment (R)": 0.41}
{"Strand": "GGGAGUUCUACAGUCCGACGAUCACUGGAACGUCCUCACAGGGAUGAAGGAAUUCUUUCUUUCCCACAGGAAAGGUGCUACUGUGUGGGUCUGGAACCUGUGAAUGAAUCACUCCUGGGGUUUCGUUUCUAUGUGGAAUUCUCGGGUGCCAA", "RBNS enrichment (R)": 0.315}
{"Strand": "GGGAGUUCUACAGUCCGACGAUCACAAUUCACUUGAAUUUGACAAACUGAAACAGAUGGGUUUUCUGGGUUCUCUGAUAACCUAUGGGAAUGUUUGGAUGCCAGUUGGGCUAGUGAAUCGCCACUGUACUGUAUGGAAUUCUCGGGUGCCAA", "RBNS enrichment (R)": 0.381}
{"data": "Set 3", "target": "Histone acetyltransferase KAT6A, winged helix 2, GST fusion (KAT6A, Homo sapiens, UniProt Q92794, residues 85-181)", "technique": "protein binding microarray", "form": "double-stranded DNA, one strand shown", "sample": "in vitro", "tested at": "not given", "setting": "8-mer, flanks averaged, mean of 2 arrays, mostly near background", "relative to": "not given", "reading": "higher = stronger binding", "Construct (chain)": "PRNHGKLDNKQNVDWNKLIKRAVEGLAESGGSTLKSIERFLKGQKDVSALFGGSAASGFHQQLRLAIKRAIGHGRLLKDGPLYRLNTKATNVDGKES"}
{"Strand": "CTGCACAG", "E-score": -0.0578}
{"Strand": "CGTCGGAA", "E-score": 0.0316}
{"Strand": "AGAATTTA", "E-score": -0.0602}
{"Strand": "CCCGGTGC", "E-score": -0.0108}
{"Strand": "GAGCAGCA", "E-score": 0.247}
{"Strand": "CAATACAA", "E-score": -0.0543}
{"Strand": "AAAACGGA", "E-score": 0.0322}
{"Strand": "TCCCCGAA", "E-score": 0.0611}
{"Strand": "ACTGCTTC", "E-score": -0.2}
{"Strand": "CGATGACC", "E-score": 0.0465}
{"Strand": "CCAGTACC", "E-score": 0.0347}
{"Strand": "CCAATAAC", "E-score": -0.0796}
{"Strand": "GTTCGTTA", "E-score": 0.0743}
{"Strand": "CGCATCAA", "E-score": 0.0419}
{"Strand": "CAGTGGAG", "E-score": 0.0182}
{"Strand": "CCAACCCC", "E-score": -0.0604}
{"Strand": "CAGGGACA", "E-score": 0.0556}
{"Strand": "CCGCGAAA", "E-score": 0.0898}
{"Strand": "GCCACAAC", "E-score": 0.156}
{"Strand": "GACACCTC", "E-score": -0.0283}
{"Strand": "CTTGAAGC", "E-score": 0.0216}
{"Strand": "CTGCCTCC", "E-score": 0.00224}
{"Strand": "CCCGGGCA", "E-score": 0.187}
{"Strand": "TAGTACCA", "E-score": -0.0288}
{"Strand": "CAAACAAA", "E-score": 0.0729}
{"data": "Set 4", "target": "Sal-like protein 4, full length isoform B (SALL4, Homo sapiens, UniProt Q9UJQ4-2, residues 1-616)", "technique": "universal PBM", "form": "double-stranded DNA, one strand shown", "sample": "in vitro", "tested at": "not given", "setting": "8-mer, flanks averaged, mean of replicates", "reading": "higher = stronger binding", "Construct (chain)": "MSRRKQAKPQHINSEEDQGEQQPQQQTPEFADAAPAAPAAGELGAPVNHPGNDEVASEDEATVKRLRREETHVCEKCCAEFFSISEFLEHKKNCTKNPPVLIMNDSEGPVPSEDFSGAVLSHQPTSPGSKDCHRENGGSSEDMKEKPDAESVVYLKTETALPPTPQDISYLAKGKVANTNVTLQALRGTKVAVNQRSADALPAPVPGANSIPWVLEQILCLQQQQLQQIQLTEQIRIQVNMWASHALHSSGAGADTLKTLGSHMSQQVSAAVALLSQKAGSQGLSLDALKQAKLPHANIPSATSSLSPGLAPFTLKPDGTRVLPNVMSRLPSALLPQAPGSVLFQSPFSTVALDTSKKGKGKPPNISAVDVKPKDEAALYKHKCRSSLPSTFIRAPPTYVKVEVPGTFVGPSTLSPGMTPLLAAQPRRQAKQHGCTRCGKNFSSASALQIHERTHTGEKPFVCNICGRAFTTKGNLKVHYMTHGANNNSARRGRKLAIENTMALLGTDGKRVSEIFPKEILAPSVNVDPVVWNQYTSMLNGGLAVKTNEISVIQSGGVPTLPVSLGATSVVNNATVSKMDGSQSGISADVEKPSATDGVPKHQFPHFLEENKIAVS"}
{"Strand": "ACGGATAC", "E-score": 0.0944}
{"Strand": "CTCTATCA", "E-score": 0.106}
{"Strand": "AATGCTGC", "E-score": 0.0922}
{"Strand": "ATGCCGGA", "E-score": -0.153}
{"Strand": "CGACTAAG", "E-score": -0.174}
{"Strand": "CCATCATC", "E-score": 0.117}
{"Strand": "CCCAACGA", "E-score": -0.0626}
{"Strand": "GAACGGAA", "E-score": -0.0984}
{"Strand": "CGGTCGCA", "E-score": -0.253}
{"Strand": "AATTCTCT", "E-score": -0.0128}
{"Strand": "CACACTGC", "E-score": -0.208}
{"Strand": "ATTGAGAG", "E-score": 0.115}
{"Strand": "AAGCCCCG", "E-score": -0.236}
{"Strand": "AACGCAGG", "E-score": -0.151}
{"Strand": "CGCGGCTA", "E-score": -0.309}
{"Strand": "CCATACTC", "E-score": -0.0933}
{"Strand": "AGGAGGGA", "E-score": -0.151}
{"Strand": "CATCTCCG", "E-score": -0.038}
{"Strand": "ATCGTCGC", "E-score": -0.0157}
{"Strand": "AGCGGTTC", "E-score": -0.21}
{"Strand": "AAGGCAAG", "E-score": -0.0396}
{"Strand": "TCTTGCCA", "E-score": -0.047}
{"Strand": "AACCGACG", "E-score": -0.137}
{"Strand": "AGCACATA", "E-score": 0.111}
{"Strand": "AGAATTTA", "E-score": 0.299}
